Published values collected from several papers.
A part holds a random share of what one study measured. Changes are numbered by the printed parent chain.

Sample 1
Target: CCND1, cyclin fold, Cln2 fusion (human)
Method: yeast growth competition, sequencing
Sample: yeast
Notes: weak parent motif
Baseline: not given
Direction: higher = stronger binding
Quantity: normalised enrichment score
Starting sequence: RB1 docking peptide (human); PKPLKKLRFDIEG
PKPLKKLRFDILG [E12L]: 0.176
PKDLKKLRFDIEG [P3D]: 0.554
PKPLKKFRFDIEG [L7F]: -0.19
PHPLKKLRFDIEG [K2H]: -0.594
PKPLKKLRFDIIG [E12I]: 0.793
PKPLKKLRFFIEG [D10F]: 0.637
PKPLKHLRFDIEG [K6H]: 0.00875
IKPLKKLRFDIEG [P1I]: -0.42
PKPLKKLAFDIEG [R8A]: -0.0153
PKPHKKLRFDIEG [L4H]: -0.379
PKPLKKLRFDIYG [E12Y]: 0.241
PGPLKKLRFDIEG [K2G]: -0.0977
PKPLKKLRKDIEG [F9K]: -0.0499
PKPLKKLRFDIEQ [G13Q]: 0.203
PKPLKKLRFPIEG [D10P]: 0.126
PKPLKKLRFRIEG [D10R]: 0.939
DKPLKKLRFDIEG [P1D]: 1.49

Sample 2
Target: Histone acetyltransferase KAT6A, winged helix 2, GST fusion (KAT6A, Homo sapiens, UniProt Q92794, residues 85-181)
Method: protein binding microarray
Molecule type: double-stranded DNA, one strand shown
Sample: in vitro
Concentration: not given
Notes: 8-mer, flanks averaged, mean of 2 arrays, mostly near background
Baseline: not given
Direction: higher = stronger binding
Quantity: E-score
Target sequence (chain): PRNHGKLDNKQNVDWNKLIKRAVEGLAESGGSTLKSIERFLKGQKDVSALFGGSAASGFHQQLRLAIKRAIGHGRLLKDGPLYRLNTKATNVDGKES
CTAATGTC: -0.0985
AGAATCTA: -0.12
GAAAGCCA: 0.037
AAGTTGTG: -0.0259
GCACGAAC: 0.14
CAAAATAA: 0.0153
ACGCATGG: -0.102
CGGTTTAC: -0.0778
GATGTCCC: 0.00831
ACTTTACT: -0.222
CGTAGCAG: -0.00835
CGTCAGGC: 0.103
ACAAGCCG: 0.126
AGCATTTA: 0.0515
CGTGAAGA: 0.0241
CTTGTCAC: 0.117
GAAGCAGA: 0.111
GTCGCTGA: 0.0697
CACCTACA: -0.178
AAACTGCC: 0.196
AGGGATGA: -0.0371
GCCTCATA: -0.168

Sample 3
Target: Sal-like protein 4, full length isoform B (SALL4, Homo sapiens, UniProt Q9UJQ4-2, residues 1-616)
Method: universal PBM
Molecule type: double-stranded DNA, one strand shown
Sample: in vitro
Concentration: not given
Notes: 8-mer, flanks averaged, mean of replicates
Direction: higher = stronger binding
Quantity: E-score
Residues (chain): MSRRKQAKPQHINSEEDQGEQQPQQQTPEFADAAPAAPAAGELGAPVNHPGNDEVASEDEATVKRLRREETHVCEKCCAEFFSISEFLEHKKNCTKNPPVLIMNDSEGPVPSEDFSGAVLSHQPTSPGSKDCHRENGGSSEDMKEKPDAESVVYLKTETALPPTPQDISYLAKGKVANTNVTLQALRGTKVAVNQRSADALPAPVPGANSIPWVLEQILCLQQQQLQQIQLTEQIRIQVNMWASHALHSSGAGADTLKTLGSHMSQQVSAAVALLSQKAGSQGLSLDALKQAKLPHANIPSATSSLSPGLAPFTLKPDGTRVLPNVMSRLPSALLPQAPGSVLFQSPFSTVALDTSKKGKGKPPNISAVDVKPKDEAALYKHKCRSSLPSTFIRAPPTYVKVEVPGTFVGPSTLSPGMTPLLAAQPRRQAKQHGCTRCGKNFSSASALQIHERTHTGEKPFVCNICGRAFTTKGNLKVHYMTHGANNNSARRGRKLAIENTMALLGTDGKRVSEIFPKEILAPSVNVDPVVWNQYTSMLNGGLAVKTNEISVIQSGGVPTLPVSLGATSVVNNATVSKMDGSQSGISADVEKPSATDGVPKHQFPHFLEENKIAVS
AGATGGGC: -0.202
CTGGTCCC: -0.276
CTATGAAC: 0.177
CCGTGTCG: -0.283
CTGTAGGA: -0.0761
GCGCCCGA: -0.313
TGCAATAA: 0.309
AACATTTG: 0.144
GGGCTCCA: -0.285
GCCGTTCA: -0.215
GACACTTA: 0.118
CACGTACG: -0.0233
AGCTAAGC: -0.287
AGTATCAT: 0.237
GTGATACA: 0.133
CGGTCGAC: -0.23

Sample 4
Target: RNA binding protein fox-1 homolog 2, RRM domain, GST-SBP tag (RBFOX2, Homo sapiens, UniProt O43251-10, residues 100-194)
Method: RNA Bind-n-Seq
Molecule type: RNA
Sample: in vitro
Concentration: 365 nM
Notes: natural RNA segment, single round, ends assumed
Baseline: no-protein control
Direction: higher = stronger binding
Quantity: RBNS enrichment (R)
Shared flanks, not repeated: GGGAGUUCUACAGUCCGACGAUC … UGGAAUUCUCGGGUGCCAA
Residues (chain): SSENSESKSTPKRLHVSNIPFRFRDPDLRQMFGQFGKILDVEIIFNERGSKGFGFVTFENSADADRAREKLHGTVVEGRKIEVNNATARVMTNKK
UUCUGUUAGUCUUAACAGUCUGUUUUCUUUUAAAAGCAUGUAGGGCUUCAUUGCCAUGUUCUGUGGGUGUUUGGCAGGUUACCGAUGGGGAAGAUUCUUGUCACAGAAUC: 0.886
AGAGAAAAAAGAAAGAAGAUAAAUGAGAAUAAUGAUAACCAGAACUUGCUGGAAAUGUGCCUACAAUGGCCUUGUAACAGCCAUUGUUCCCAACAGCAUCACUUAGGGGU: 1.28
ACGCCCUGAGUACGGGUACCAUGCUCUGUUUACUUUAGGAUCUCCAGCACCAAGCAAGUGCCUGGCACAUAGUCUGUGCCCUUAACAUUUGUAGAAAGGAGCUCACCAGC: 0.197
AGGGCAGCCAGGUGUGCGUGUCUUGAAAUUACUGACUUGAGUUCUUGUAUCACAACUAAUUUCAGCUGAGAGUUCAGCCUUGGGAGAAAGCACACCAUGGUGGGAGAGGU: 0.758
GCCCAGGAGUGGGGAGGCUUUGGCCAGGGAUGCUGCCACUUGUGCGUGAGUCCGCGGCUGGCCCUUGGAGGUGACCAUCCAGGCAGGCCUGGCUCAGACUGGAAGGGCUG: 0.94
UGCCAGAGGUGGUUUUUGAACAGGAAAAUCAUAAUUCAUAUCAUUGGAGAAGUAUUUAUUUUCAAAUAUCAAAUUGAAGAAAAACUCAAUCCUCCCAUGAAAAUCAGUUC: 0.491
AGUGUCUGGCUUUAACAUGUGAUUCCACAAGAGUAGAAGCAAGAAAGGUAUAUACUUUUAGGAGCCUAAAAAACAUUUCCAAACUAGCCCAAGCUAUCUCAACUACAGGA: 0.356
CGGACCAGGGAGGCGUCCCUCCCUAGGAGCCACACAUUAUACUCCAAGUCCCUGCCGGGCUCCGCCUUUCCCCCACCCUGGCUCUCAGGGUGACGCCACCCACAGAGAUU: 0.296
UCUUCAUUUUUUUGGUAUUUGCAUAAAGUGAACAAUAUCACAAGAAUUAAAUCACUGUGGACCCAUUACCUACCUUUCCUUAUUGUCCGUUCCAUGUUGUGCCAUUUCUG: 1.3
AGUGGGGCCCGCACUCAGAACUGUGAGGAGGGUGGAGAGUGGUCCUGACCCUCAGUUCCCAGAGGACCUAGAGGCUCGAGGGUGGGGCCUGCCUUUCUUGAUGUCCAAUG: 0.721
ACCAACGAAUUCACCAACCAGGGGUUUCUUUCCCUACCCUUUGUGAAAACCAAUCAAUUACUAGAUGAGUGGAUGGAUGCAGAAAAAUCUGGGCUGAGCCAAAGUCCCUU: 0.384
AUGACUUUUUCAAAAAUAUACAGGGGCAGCUGCCAAAUUGAUGUAUUAUAUAUUGUGGUUUCUGUUUCUUGAAAGAAUUUUUUUCGUUAUUUUUACAUCUAACAAAGUAA: 0.79

Sample 5
Target: Interferon regulatory factor 5, full length, phosphomimetic (IRF5, Homo sapiens, UniProt Q13568-2, residues 1-514, K96S/S451D/S453D/S456D/S462D)
Method: protein-binding microarray
Molecule type: double-stranded DNA, one strand shown
Sample: in vitro
Concentration: 250 nM
Notes: 60-bp whole probe
Added: salmon DNA 0.4 mg/ml
Baseline: random background probes
Direction: higher = stronger binding
Quantity: log fluorescence
Shared flanks, not repeated: GCCTAGCAC … GTCTTGATTCGCTTGACGCTGCTG
GAGCCCGGGGTGTAAGCAACGTGCTAG: -1.02 z-score
TTTTGCTTTCTTTTTGCACTGTGCTAG: 6.39 z-score
TCACTTCTTGAACTCTTACTGTGCTAG: 0.55 z-score
TTAGGACTGCTTATCCTGTAGTGCTAG: -0.343 z-score
GACGGTTTCCGTTTCGGGACGTGCTAG: 4.1 z-score
TGAAAATTCTAATTAGAATTGTGCTAG: 0.977 z-score
CTCGCTATGTTGTCCAGGCTGGTGCTA: -0.542 z-score
TTAGGTTCAGGTTTCGGTTAGTGCTAG: 8.11 z-score
AGAGCCTGGGGATGCAGAGAGTGCTAG: -0.768 z-score
GGTATTCGGAACTTTTAGCTGTGCTAG: 0.225 z-score
TTGGATTTCGGGTTTCGATTAGTGCTA: 7.74 z-score
GTGTTTTCACTTTTCCTACAGTGCTAG: 5.62 z-score
CCACATATGCTTTTTAGAAAGTGCTAG: 0.398 z-score
GACGATCTCCGTTTCGAGACGTGCTAG: 1.81 z-score
GTGATTTCAGTTTTCTTTTCGTGCTAG: 3.27 z-score
TCATATATCTTATCCTAACTGTGCTAG: 0.731 z-score
TTAGGTTTAGGTTTCGGTTAGTGCTAG: 9.07 z-score
TTAGATTTTAGTTTCGATTAGTGCTAG: 10.2 z-score
TTAGGTTACGGGTATCGGTTAGTGCTA: 3.2 z-score
TTACGTATCGACTATCGGTTAGTGCTA: 8.55 z-score
GACGGTTTCCGACTGCTGACGTGCTAG: 0.126 z-score
TCAGATTTCAGACTGGATTAGTGCTAG: 0.384 z-score
AACGAACTGAGTCTCGAGACGTGCTAG: -0.0574 z-score
TTAGGACTGTGTCTCGGTTAGTGCTAG: 0.0389 z-score
TCACTTTGCCTTTTGCTACTGTGCTAG: 0.75 z-score

Repeated from above (sample 3):
GTGATACA: 0.133
AACATTTG: 0.144
AGTATCAT: 0.237
CACGTACG: -0.0233
AGATGGGC: -0.202
CGGTCGAC: -0.23
GGGCTCCA: -0.285
GCGCCCGA: -0.313
CCGTGTCG: -0.283
CTATGAAC: 0.177
CTGTAGGA: -0.0761
GCCGTTCA: -0.215
